Results of several laboratories.
A part holds a random share of what one study measured. Substitutions count along the parent as printed.

Study 1
Target: CCNB2, cyclin fold, Cln2 fusion (human)
Technique: yeast growth competition, sequencing
Matrix: yeast
Setting: strong parent motif
Baseline: not given
Direction: higher = stronger binding
Starting sequence: PKMYT1 docking peptide (human); SFEPRNLLSLFED; partner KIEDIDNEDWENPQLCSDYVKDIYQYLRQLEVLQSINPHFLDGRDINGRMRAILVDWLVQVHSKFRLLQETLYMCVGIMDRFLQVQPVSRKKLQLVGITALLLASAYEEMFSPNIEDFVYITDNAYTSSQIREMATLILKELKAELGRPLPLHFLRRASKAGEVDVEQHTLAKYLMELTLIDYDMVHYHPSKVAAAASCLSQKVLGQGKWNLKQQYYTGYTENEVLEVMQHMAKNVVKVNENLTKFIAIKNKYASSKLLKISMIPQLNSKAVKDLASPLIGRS
Under “normalised enrichment score”, `S9T` is recorded as 1.3.
`F11I`: “normalised enrichment score” 0.153.
For `S9H`, “normalised enrichment score” read 1.03.
Under “normalised enrichment score”, `D13F` is recorded as 0.744.
For `L8P`, “normalised enrichment score” read -0.536.
For `E3D`, “normalised enrichment score” read -0.0077.
`E12M` — result for “normalised enrichment score”: 0.575.
`P4D` — result for “normalised enrichment score”: -0.68.
`E3T` — result for “normalised enrichment score”: 1.01.
`F11S`: “normalised enrichment score” -0.245.
Under “normalised enrichment score”, `S1R` is recorded as 1.12.
Under “normalised enrichment score”, `L10I` is recorded as 1.05.
Under “normalised enrichment score”, `N6E` is recorded as -0.296.
`N6M` — result for “normalised enrichment score”: -1.04.
`L10R`: “normalised enrichment score” 0.0998.
`E12H` — result for “normalised enrichment score”: 0.12.

Study 2
Target: RING finger protein unkempt homolog, zinc fingers 1-6, SBP tag (UNK, Homo sapiens, UniProt Q9C0B0, residues 30-357)
UniProt Q9C0B0, sequence (30-357, looked up): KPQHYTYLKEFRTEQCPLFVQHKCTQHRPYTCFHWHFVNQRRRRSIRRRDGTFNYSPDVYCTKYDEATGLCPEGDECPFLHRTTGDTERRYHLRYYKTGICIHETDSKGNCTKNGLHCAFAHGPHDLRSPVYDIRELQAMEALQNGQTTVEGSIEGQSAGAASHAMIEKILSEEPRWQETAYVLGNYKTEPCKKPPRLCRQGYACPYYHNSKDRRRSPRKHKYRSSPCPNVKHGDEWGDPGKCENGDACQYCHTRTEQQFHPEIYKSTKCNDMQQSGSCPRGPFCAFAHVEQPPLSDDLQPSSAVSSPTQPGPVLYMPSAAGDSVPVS
Technique: RNA Bind-n-Seq
Form: RNA
Matrix: in vitro
Tested at: 100 nM
Setting: RNA with constant flanks, ends assumed
Baseline: input RNA pool
Direction: higher = stronger binding
The bound/input enrichment of `GGGAGUUCUACAGUCCGACGAUCUCAUUGUACUGCAAAAAUCAUCCUCGUUUUAAAUCCGCCACAGUGAUAACCCGUCUGCACCCGCCGAAUCAUUUACCUUUUAAAUUAUCUGCUUUGUCUGAUACCUGAAACACAUCAAAACAACAGAGGAUUGAGCAUCA` is reported as 0.68 ratio.
`GGGAGUUCUACAGUCCGACGAUCGACCCCCACUCCCUGUGAGAGGGAAUGGGGGAAGCCUGAUGACCCUCAGCUGUUCCAAUCCCGUAUUUUUUUUCUUUUUUAAAAUUACUGUAUUUAUUAUGACGAUGGUGACUCCCCAGUCAACAGAGGAUUGAGCAUCA` has a bound/input enrichment of 0.955 ratio.
`GGGAGUUCUACAGUCCGACGAUCUCCAGUCUUACACUUAUGGUUGGCCUCAAAUCUAUUGCAUUUAUGAUAAUGUAUUAUAUCCCGUUGAGUUUAAUAUUUUUUUAUCCGCCUGUAAAUAAAGAUGGCAUCUUCUACAUUAAACAACAGAGGAUUGAGCAUCA` gave a bound/input enrichment of 0.332 ratio.
`GGGAGUUCUACAGUCCGACGAUCUAUUUUCUUAUUUCCGGUAUCAUUGCCCAGUGCCUAAGAUCUUUUAUGUUCAGCUCACUGCCGGAAAUAAUGAAUUUUUUGGGGAAGGAAAGACUCGACAAGCUGCCCGACACAAUGCUGCAACAGAGGAUUGAGCAUCA` gave a bound/input enrichment of 0.425 ratio.

Study 3
Target: Interferon regulatory factor 5, full length, phosphomimetic (IRF5, Homo sapiens, UniProt Q13568-2, residues 1-514, K96S/S451D/S453D/S456D/S462D)
Technique: protein-binding microarray
Form: double-stranded DNA, one strand shown
Matrix: in vitro
Tested at: 250 nM
Setting: 60-bp whole probe
Added: salmon DNA 0.4 mg/ml
Baseline: random background probes
Direction: higher = stronger binding
Shared flanks, not repeated: GCCTAGCAC … GTCTTGATTCGCTTGACGCTGCTG
With `GACGAACTGAGTTCCGAGACGTGCTAG` the log fluorescence was -0.215 z-score.
`TTAGAACTGAGTTTCGATTTGTGCTAG` has a log fluorescence of 9.31 z-score.
The log fluorescence of `TTCTTTTCCATTTTGTGTTTGTGCTAG` is reported as 1.78 z-score.
The log fluorescence of `GACGGTATCCTACTGTTGACGTGCTAG` is reported as -0.0647 z-score.
The log fluorescence of `GAACATACTGATTTCCACTTGTGCTAG` is reported as 0.617 z-score.
`AAGACTTTGCTCTGTGCATAGGTGCTA` has a log fluorescence of -0.222 z-score.
`TTAGGTATCCACACTGGGTTAGTGCTA` gave a log fluorescence of -0.203 z-score.
The log fluorescence of `TTAGGTTTCGACTTGCGGTTAGTGCTA` is reported as 7.21 z-score.
With `AACGATATCGGGACTGGAGACGTGCTA` the log fluorescence was 1.07 z-score.
`GACGGTATCTACTTTCGGGACGTGCTA` gave a log fluorescence of 7 z-score.
For `TCACTCCTCCAGGTTCTCACTGTGCTA`, the log fluorescence was 0.491 z-score.
`TTAGGATTGGGTTTCGGTTAGTGCTAG` gave a log fluorescence of 8.3 z-score.
`TTAGATAACAGTTTCGATTAGTGCTAG` gave a log fluorescence of 9.28 z-score.
`TTAGGACTGCTTATCCATTAGTGCTAG` has a log fluorescence of -0.316 z-score.
`GACGGTATCGACACTGGCGACGTGCTA` gave a log fluorescence of 1.68 z-score.
For `TTAGGTTGCGACTATCGGTTAGTGCTA`, the log fluorescence was 6.54 z-score.
`TTAGGTATCGACACTGGGTTCGTGCTA` has a log fluorescence of 2.36 z-score.
With `TTAGATTTCAGTCTGGATTAGTGCTAG` the log fluorescence was 2.04 z-score.
The log fluorescence of `TTAGGTTTCGACTTTCCGTTAGTGCTA` is reported as 7.29 z-score.

Study 4
Substance: PhoQ, residues 284 288 289 292 302 303 SCEHLI
Technique: Sort-seq
Item: YFP reporter
Matrix: E. coli
Setting: PhoQ-PhoP variant library
Added: 10 µM Mg2+
Baseline: high Mg2+ state
Direction: higher = stronger signaling
It gave 16.6 for fold induction (PhoP, residues 12 14 15 18 19 TQAML (Escherichia coli, UniProt P23836)).
PhoP, residues 12 14 15 18 19 NQCAL (Escherichia coli, UniProt P23836) — fold induction: 13.8.
For PhoP, residues 12 14 15 18 19 LHTVL (Escherichia coli, UniProt P23836): fold induction read 12.9.

Study 5
Target: RNA binding protein fox-1 homolog 2, RRM domain, GST-SBP tag (RBFOX2, Homo sapiens, UniProt O43251-10, residues 100-194)
Technique: RNA Bind-n-Seq
Form: RNA
Matrix: in vitro
Tested at: 365 nM
Setting: natural RNA segment, single round, ends assumed
Baseline: no-protein control
Direction: higher = stronger binding
Shared flanks, not repeated: GGGAGUUCUACAGUCCGACGAUC … UGGAAUUCUCGGGUGCCAA
`UCAAACUGCUGGAAAUCUCAAAACUGUACUGUCUUUAUUUUUGUAUAUUGUAUUUAUAUAUAAAAAGAAACGUCUACGUAUGCAUGCUAAAUUAUUAUUUAGCUUCUCCC` — result for “RBNS enrichment (R)”: 1.5.
`GAAUGAUGGGACGGCCUGAUGCUGUCAUGCUCUCCACUGCACCUGUGGCAGCCUCCUGAGAGCCACCAAGAUCUGGGAUGAAGGCCACACCAGCCAUGUCUGCUGAAGGG`: “RBNS enrichment (R)” 0.414.
For `UCAGUGCUUAUUUUUUAAACUGCAUUUUAAAAAUUGGAUAGUAUAAUAACAAUAAGGAGUAAGCCACCUUUUAUAGGCACCCUGUAGUUUUAUAGUUCUUAAUCUAAACA`, “RBNS enrichment (R)” read 0.433.
`CCUAGUUGUCCUGGUGCUAACACAGGAGCUACACCUUGAUCCUCUCCUGGCAUGAAAAUAAAACAAAGGUUUUCGUUGUUGUUGUUCCAUUGCCCAUUUCCCCCAUGUUG` — result for “RBNS enrichment (R)”: 0.521.
`UAAGAAUAAGCCUAUGGUCAUGGGCAAGAAGGGCCAACAUAGACACUUGGGUAGAAAUACAGUCUGAUCAAGCAACGGUGUAAGGAAAAGUCCCUAAUUCACAACCUCCU` — result for “RBNS enrichment (R)”: 0.433.
For `GGGUUUCCUGCUGCCUGCCCUGGCCCGUGAGAGACGCACGCAACAAACGGAAGAAUUAGAGACGUCCUACAAGGCAGAUUCAGACCAAUAUUUCUUCGUAUAGUUUAUUC`, “RBNS enrichment (R)” read 1.17.
`UGGGGUUUUUUUGUACAAAUUUAGCUAAUAGCUACAGGCUGAGAGAAUUGUAACAUAGCAUGACAAAUUUUGUGUUGACUUGAAAGGAAUCACACCAUUAUUCCUUAGAA` — result for “RBNS enrichment (R)”: 19.9.
`UUUUUUAGGAAAACAAAAAUGAAAAACUACUCCAUUUGAGGAUUGUAAUUCCCACCCCUCUUGCUUCUUCCCCACCUCACCAUCUCCCAGACCCUCUUCCCUUUGCCCUU` — result for “RBNS enrichment (R)”: 2.17.

Study 6
Target: TAR DNA-binding protein 43, full length, His tag (TARDBP, Homo sapiens, UniProt Q13148, residues 1-414)
Technique: RNA Bind-n-Seq
Form: RNA
Matrix: in vitro
Tested at: 20 nM
Setting: 6-mer, flanks averaged, single round
Added: 150 mM LiCl
Baseline: input library
Direction: higher = stronger binding
For `GUUGAC`, “6-mer enrichment (R)” read 0.981.
Under “6-mer enrichment (R)”, `GUUCCG` is recorded as 0.93.
Under “6-mer enrichment (R)”, `UUCACA` is recorded as 0.854.
`GUCAGA`: “6-mer enrichment (R)” 0.891.
`CCACCC` — result for “6-mer enrichment (R)”: 1.11.
Under “6-mer enrichment (R)”, `GAUAUU` is recorded as 0.932.
Under “6-mer enrichment (R)”, `CCUCCA` is recorded as 0.99.
For `GUGCUA`, “6-mer enrichment (R)” read 1.01.
Under “6-mer enrichment (R)”, `CGCCCU` is recorded as 1.03.
For `GGACUU`, “6-mer enrichment (R)” read 1.03.
Under “6-mer enrichment (R)”, `UGCUGG` is recorded as 1.07.
For `AAACGU`, “6-mer enrichment (R)” read 0.837.
`AUGCCG` — result for “6-mer enrichment (R)”: 0.915.
`GCUUUU`: “6-mer enrichment (R)” 1.16.
`CUCGUU` — result for “6-mer enrichment (R)”: 0.872.
`GCAUAG`: “6-mer enrichment (R)” 0.914.
Under “6-mer enrichment (R)”, `UGUGCC` is recorded as 1.19.
`UACCCG` — result for “6-mer enrichment (R)”: 0.921.

For quick reference, copied from above (study 6):
`GUCAGA`: “6-mer enrichment (R)” 0.891.
For `GGACUU`, “6-mer enrichment (R)” read 1.03.
`GCUUUU`: “6-mer enrichment (R)” 1.16.
`UACCCG` — result for “6-mer enrichment (R)”: 0.921.
